Measurements gathered from unrelated publications.
Protocols differ between the studies behind these lines. Values joined by “and” are separate records of one study, mostly repeats; a detail may differ. Numbers after ± are the reported error.

For `C=CC(=O)N1CCC(c2ccc(C(N)=O)c(-c3ccc(Oc4ccccc4)cc3)n2)CC1`, the PR was 56.6% (tumour response, Lugano classification; patients with relapsed/refractory MCL; independent review, 16.4 months follow-up).
With `COc1ccc(-c2cncc(N[C@@H](C)c3cccc(NC(=O)c4cncc(C)c4)c3)n2)cc1OC` the fold change was 0.8 (measured: rno-miR-342-3p; rat SU5416/hypoxia model, lung; dose not given; reference: SU5416/hypoxia vehicle).
`CCCCc1nc2c(N)nc3ccccc3c2n1Cc1ccc(N)cc1` — result for CD86 induction: “increased” (CD86 expression, flow cytometry; CD14+ myeloid cells in PBMC, human; 100 or 1000 nM).
`O=S1(=O)CC(N2CCCCC2)c2ccccc21` (stereo not drawn) has an IC50 of over 125 µM (CoA-CPM signal reduction, CPM fluorescence thiol; cell-free biochemical; assay interference counter-screen, added: CoA replacing acetyl-CoA).
The enrichment score of `CN(C)C(=O)c1cc2cnc(Nc3ccc(N4CCNCC4)cn3)nc2n1C1CCCC1` is reported as 0.321 (RNA-seq GSEA, measured: HALLMARK_UV_RESPONSE_UP gene set; MB002 tumour; concentration not given; reference: vehicle, direction not given).
`CO[C@@H]1[C@@H](OC(N)=O)[C@@H](O)[C@H](Oc2ccc3c(O)c(NC(=O)c4ccc(O)c(CC=C(C)C)c4)c(=O)oc3c2C)OC1(C)C` has a colony survival of 21.4% and 6.98% and 1.52% and 14.1% and 24.8% (Brca1 wild-type MEFs, mouse; 200 µM).
For `Cl.N[C@@H](CC1=CCC(O)(c2nncnn2)C=C1)C(=O)O` (stereo partly drawn), the kobs was 6.1 s⁻¹ (iEDDA cycloaddition; aqueous DMSO 25 %; 37 °C, added: TCO-OH 15 mM).
`O=C(O)CNC(=O)Cc1ccccc1` gave a sarcomere length of 1.72 µm (ventricular cardiomyocytes, C57BL/6 mouse; dose not given, 0.4 s).
With `CC(C)C[C@H](NC(=O)[C@H](CCC1CCCCC1)NC(=O)[C@@H]1C[C@H](C)CN1C(=O)c1ccc(F)cc1)C(=O)NC(C)(C)C(=O)N[C@@H](CC(C)C)C(=O)N[C@@H](CC(C)C)C(=O)NC(C)(C)C(=O)NC(C)(C)C(=O)NCCC(=O)N[C@@H](C)CN(C)C` the calcein leakage was 30.1% (small unilamellar vesicles; concentration not given).
Under “blood glucose concentration”, `CO[C@H]1C[C@@H]2CC[C@@H](C)[C@@](O)(O2)C(=O)C(=O)N2CCCC[C@H]2C(=O)O[C@H]([C@H](C)C[C@@H]2CC[C@@H](O)[C@H](OC)C2)CC(=O)[C@H](C)/C=C(\C)[C@@H](O)[C@@H](OC)C(=O)[C@H](C)C[C@H](C)/C=C/C=C/C=C/1C` is recorded as 153 mg/dL (healthy adult horses, blood; intravenous, 0.06 mg/kg, 90 min, oral glucose test 4 h post-dose).
For `C[C@H](Oc1ccc(Br)cc1-c1ccon1)C(=O)O`, “difference from placebo” read 3.59% (muscle velocity recovery cycle; human, tibialis anterior muscle; 600 mg once daily, first response peak at 15 Hz, multiple ascending dose).
`Cn1cc(Nc2nccc(-c3ccc4c(c3)CN(C3COC3)CC[C@H]4NC(=O)c3cn(C(C)(C)C)nn3)n2)cn1`: “pathway activation z-score” 1.39 (measured: TNFR1 signalling; mouse splenic B cells, mouse; 30 mg/kg, IgD-activated B cells in vivo; reference: vehicle, direction not given).
`C[C@@H](NC(=O)N1C(=O)[C@H](Cc2ccnc(N)c2)[C@H]1C(=O)O)C1CCCCC1` gave an aPTT AUEC of 7210 h·s (human; iv infusion, 2.25 mg/kg/h, 24 h).
With `Clc1cccc(Nc2nc(-c3ccncc3)no2)c1` the IC50 was over 125 µM (CoA-CPM signal reduction, CPM fluorescence thiol; cell-free biochemical; assay interference counter-screen, added: CoA replacing acetyl-CoA).
Under “PNH RBC clone size”, `CCO[C@H]1CCN(Cc2c(OC)cc(C)c3[nH]ccc23)[C@H](c2ccc(C(=O)O)cc2)C1` is recorded as 88.8% (PNH patients, blood; oral, 25 mg then 100 mg, week 2, mean percent change; reference: baseline).
`O=C(NC[C@H]1CN(c2ccc(N3CCOCC3=O)cc2)C(=O)O1)c1ccc(Cl)s1`: “maximum prothrombin time prolongation” 8.49 (human moderate renal impairment, plasma; 10 mg, mean, unit not given; reference: baseline).
Under “tumour volume difference”, `C=CCn1c(=O)c2cnc(Nc3ccc(N4CCN(C)CC4)cc3)nc2n1-c1ccc2c(n1)[C@@](O)(CC)CC2` is recorded as -104 ± 5.7 mm3 (MCF7 xenograft, BALB/c nude mice; oral, 80 mg/kg, day 29, once daily days 1-22 and 26-28).
For `COc1cc2cc(-c3ccc(CC(=O)Nc4cc(C(C)(C)C(F)(F)F)no4)cn3)cnc2cc1OC`, “best overall response PR” read 42% (RECIST v1.1; human RET fusion-positive NSCLC; 75 mg, phase I).
The sarcomere length of `CC(C)NCC(O)c1ccc(O)c(O)c1` (stereo not drawn) is reported as 1.65 µm (ventricular cardiomyocytes, C57BL/6 mouse; dose not given, 0.26 s).
`NC(=O)c1cnc2[nH]ccc2c1N[C@@H]1[C@@H]2CC3C[C@H]1C[C@@](O)(C3)C2` — result for “CD8+CD28+ naive T-cell change”: -1.07% (flow cytometry; Japanese healthy men, blood; oral, 30 mg twice daily, 72 h after day 7 dose; reference: baseline).
The triglycerides of `CC(C)c1c(C(=O)Nc2ccccc2)c(-c2ccccc2)c(-c2ccc(F)cc2)n1CC[C@@H](O)C[C@@H](O)CC(=O)O` is reported as 54.3 mg/dL (cynomolgus monkey, male, serum; 40 mg/kg or 25 mg/kg, day 176, 4224 h).
